Assay results from different studies.
Compare with care: the assays were run in different laboratories.
Organism: Staphylococcus aureus

CC[C@H]1OC(=O)[C@H](C)[C@@H](OC(=O)Cc2cccc3ccccc23)[C@H](C)[C@@H](O[C@@H]2O[C@H](C)C[C@H](N(C)C)[C@H]2O)[C@](C)(OC)C[C@@H](C)C(=O)[C@H](C)[C@@H](O)[C@]1(C)O — MIC (DSM 20231 MSSA): 8 µg/mL
CCCCCCCCCC[N+](C)(C)CCCCCCCCOc1cc(OCCCCCCCC[N+](C)(C)CCCCCCCCCC)cc(OCCCCCCCC[N+](C)(C)CCCCCCCCCC)c1.[Br-].[Br-].[Br-] — MIC (CA-MRSA USA300-0114): 2 µM
CCOc1c(NC(=O)c2ccc(NC(=O)[C@H](Cc3c[nH]nn3)NC(=O)c3ccc(NC(=O)/C(C)=C/c4ccc(O)cc4)cc3)cc2)ccc(C(=O)Nc2ccc(C(=O)O)c(O)c2OC)c1O — MIC (broth microdilution; ciprofloxacin-sensitive): 0.063 µg/mL
CC[C@H]1OC(=O)[C@H](C)[C@@H](OC(=O)Cc2cccc([N+](=O)[O-])c2)[C@H](C)[C@@H](O[C@@H]2O[C@H](C)C[C@H](N(C)C)[C@H]2O)[C@](C)(OC)C[C@@H](C)C(=O)[C@H](C)[C@@H](O)[C@]1(C)O — MIC (microbial growth; BAA976): 0.5 µg/mL
CC(C)C[C@@H]1NC(=O)[C@@H](CC(C)C)NC(=O)[C@H](CCN)NC(=O)[C@@H](NC(=O)[C@H](CCN)NC(=O)[C@@H](N)[C@@H](C)O)CCNC(=O)[C@H]([C@@H](C)O)NC(=O)[C@H](CCN)NC(=O)[C@H](CCN)NC1=O — MIC (MSSA ATCC 29213): > 138 µM
CC[C@H](C)[C@H](N)C1=N[C@H](C(=O)N[C@@H](CC(C)C)C(=O)N[C@H](CCC(=O)O)C(=O)N[C@H](C(=O)N[C@H]2CCCCNC(=O)[C@H](CC(N)=O)NC(=O)[C@@H](CC(=O)O)NC(=O)[C@H](Cc3c[nH]cn3)NC(=O)[C@@H](Cc3ccccc3)NC(=O)[C@H]([C@@H](C)CC)NC(=O)[C@@H](CCCN)NC2=O)[C@@H](C)CC)CS1 — MIC (ATCC 29213 methicillin-susceptible; 18 h, 37 °C, 0.3 mM ZnSO4 LB): 2 µg/mL
N=C(N)NCCC[C@@H]1NC(=O)[C@H](CCCNC(=N)N)NC(=O)[C@@H](CCCNC(=N)N)NC(=O)[C@@H](CCCNC(=N)N)NC(=O)[C@@H](C(c2ccccc2)c2ccccc2)NC(=O)[C@@H](Cc2c[nH]c3ccccc23)NC(=O)[C@@H](C(c2ccccc2)c2ccccc2)NC1=O — MIC (ATCC 29213, MSSA): 4 µg/mL
CN[C@H](CC(C)C)C(=O)N[C@H]1C(=O)N[C@@H](CC(N)=O)C(=O)N[C@H]2C(=O)N[C@H]3C(=O)N[C@H](C(=O)N[C@H](C(=O)N[C@@H](CCCNC(=N)N)C(N)=O)c4cc(O)cc(O)c4-c4cc3ccc4O)[C@H](O)c3ccc(c(Cl)c3)Oc3cc2cc(c3O[C@@H]2O[C@H](CO)[C@@H](O)[C@H](O)[C@H]2O[C@H]2C[C@](C)(NCc3ccc(OCc4cn(CC(=O)N[C@H](C(=O)N[C@@H](CCN)C(=O)N[C@H]5CCNC(=O)[C@H]([C@@H](C)O)NC(=O)[C@H](CCN)NC(=O)[C@H](CCN)NC(=O)[C@H](CC(C)C)NC(=O)[C@@H](CC(C)C)NC(=O)[C@H](CCN)NC5=O)[C@@H](C)O)nn4)c(OC)c3)[C@H](O)[C@H](C)O2)Oc2ccc(cc2Cl)[C@H]1O — MIC (broth microdilution; MSSA ATCC 29213, cation-adjusted Mueller-Hinton broth; 20 to 24 h, 37 °C, 0.002% polysorbate 80): 1 µg/mL
CCCCCCCC[N+](C)(C)CCCCCCCCCCOc1cc(OCCCCCCCCCC[N+](C)(C)CCCCCCCC)cc(OCCCCCCCCCC[N+](C)(C)CCCCCCCC)c1.[Br-].[Br-].[Br-] — MIC (HA-MRSA ATCC 33591): 16 µM
CC[C@H]1OC(=O)[C@H](C)[C@@H](OC(=O)Cc2ccccc2Cl)[C@H](C)[C@@H](O[C@@H]2O[C@H](C)C[C@H](N(C)C)[C@H]2O)[C@](C)(OC)C[C@@H](C)C(=O)[C@H](C)[C@@H](O)[C@]1(C)O — MIC (ATCC 43300 MRSA): > 64 µg/mL
C=C1CNCC2Nc3c(F)cc(Br)cc3C12CCNS(=O)(=O)c1ccc(Cl)cc1 (centres unmarked) — MIC (MRSA ATCC BAA-44; compound alone): 8 µg/mL
CC(C)C[C@H]1NC(=O)[C@H](Cc2c[nH]c3ccccc23)NC(=O)[C@@H](C(C)C)NC(=O)[C@@H]2CSC(N2)[C@H](C(C)C)NC(=O)[C@@H](Cc2c[nH]c3ccccc23)NC(=O)[C@H](C(C)C)NC1=O — MIC (NCTC 8325, Mueller Hinton broth; 21 h, 37 °C): 3.1 µg/mL
CCCCCCn1cc[n+](CCCCCCOc2cc(OCCCCCC[n+]3ccn(CCCCCC)c3)cc(OCCCCCC[n+]3ccn(CCCCCC)c3)c2)c1.[Br-].[Br-].[Br-] — MIC (CA-MRSA USA300-0114): 0.5 µM
CCOc1c(NC(=O)c2ccc(NC(=O)c3ccc(NC(=O)[C@H](Cc4c[nH]nn4)NC(=O)c4ccc(NC(=O)/C(C)=C/c5ccc(O)cc5)cc4)cc3)c(OCC)c2O)ccc(C(=O)O)c1O — MIC (broth microdilution; ciprofloxacin-resistant): 0.063 µg/mL
CCCCCCCC[N+](C)(C)CCCCCCCCOc1cc(OCCCCCCCC[N+](C)(C)CCCCCCCC)cc(OCCCCCCCC[N+](C)(C)CCCCCCCC)c1.[Br-].[Br-].[Br-] — MIC (HA-MRSA ATCC 33591): 1 µM
COc1cc(Cc2cnc(N)nc2N)cc(OC)c1OC.O=c1[nH]cc(F)c(=O)[nH]1 — MIC (broth microdilution; 24 h): 4 µg/mL
CCCCCCn1cc[n+](CCCCOc2cc(OCCCC[n+]3ccn(CCCCCC)c3)cc(OCCCC[n+]3ccn(CCCCCC)c3)c2)c1.[Br-].[Br-].[Br-] — MIC (HA-MRSA ATCC 33591): 8 µM
CC[C@H]1OC(=O)[C@H](C)[C@@H](OC(=O)Cc2c(F)cccc2F)[C@H](C)[C@@H](O[C@@H]2O[C@H](C)C[C@H](N(C)C)[C@H]2O)[C@](C)(OC)C[C@@H](C)C(=O)[C@H](C)[C@@H](O)[C@]1(C)O — MIC (DSM 20231 MSSA): 1 µg/mL
C/C(=C\c1ccc(O)cc1)C(=O)Nc1ccc(C(=O)N[C@@H](Cc2c[nH]nn2)C(=O)Nc2ccc(C(=O)Nc3ccc(C(=O)Nc4ccc(C(=O)O)cc4)c(O)c3)cc2)cc1 — MIC (broth microdilution; ciprofloxacin-sensitive): 32 µg/mL
C=CCOc1c(C)c(OC)c(C(=O)/C=C/c2ccccc2)c(OCC=C)c1C — MIC (microbial growth, broth dilution; ATCC25923): 5000 µg/mL
CCCCCC[N+](C)(C)CCCCCCCCOc1cc(OCCCCCCCC[N+](C)(C)CCCCCC)cc(OCCCCCCCC[N+](C)(C)CCCCCC)c1.[Br-].[Br-].[Br-] — MIC (SH1000 MSSA): 1 µM
CC[C@H]1OC(=O)[C@H](C)[C@@H](O[C@H]2C[C@@](C)(OC)[C@@H](O)[C@H](C)O2)[C@H](C)[C@@H](O[C@@H]2O[C@H](C)C[C@H](N(C)C)[C@H]2O)[C@](C)(OC)C[C@@H](C)C(=O)[C@H](C)[C@@H](O)[C@]1(C)O — MIC (microbial growth; BAA976): 16 µg/mL
CC[C@H](C)[C@H](N)C(=O)N1CCC[C@H]1C(=O)N[C@@H](Cc1ccccc1)C(=O)N[C@@H](Cc1c[nH]c2ccccc12)C(=O)N[C@@H](CCCNC(=N)N)C(=O)N[C@@H](Cc1c[nH]c2ccccc12)C(=O)N[C@@H](CC(C)C)C(=O)N[C@@H](CC(C)C)C(=O)N[C@@H](CCC(N)=O)C(=O)N[C@@H](CCCNC(=N)N)C(=O)N[C@@H](CC(C)C)C(=O)N1CCC[C@H]1C(=O)NCC(=O)O — MIC (broth microdilution; MRSA, cation-adjusted Mueller-Hinton broth; 16 h, 37 °C): 32 µg/mL
